Published values of several laboratories.
Each line is one published result; not all experiments were run side by side. Values joined by “and” are separate records of one study, mostly repeats; a detail may differ. Numbers after ± are the reported error.

| Compound | cell line | test | setting | how to read | measurement | value |
| --- | --- | --- | --- | --- | --- | --- |
| Cc1cc(C)nc(SCC(=O)Nc2ncc(Cc3cccc4ccccc34)s2)n1 | PC-3M-luc | colony formation, colony forming | 10 µM |  | inhibition | 13.8 ± 8.7% |
| CC(C)c1ccc(N(C)c2ccc3c(c2)OCC[C@H]3CNc2cnccc2C(=O)O)cc1 | KURAMOCHI | cell growth or viability, ATP luminescence | 7 days |  | IC50 | ≥ 10000 nM |
| CNS(=O)(=O)Nc1nccc(Cc2c(C)c3ccc(Oc4ncccc4F)cc3oc2=O)c1F | DLD-1 | cell viability | 7 days |  | IC50 | > 1000 nM |
| COC(=O)[C@@]1(C)C=C(C(=O)Nc2cccc(C(=O)Nc3ccc(Nc4nccc(-c5cccnc5)n4)c(C)c3)c2)C(=O)CC1 | AP1 reporter HEK293 | AP1 reporter gene, inhibitor | 10 µM, 6 h, compound kept in medium, unit not given, with: PMA | baseline: PMA alone | reporter activity | 0.0506 |
| CCN(CC)CC(=O)Nc1cccc(-n2cc(-c3ccc4ccc(-c5cn(-c6cccc(NC(=O)CN(CC)CC)c6)nn5)cc4c3)nn2)c1 | RCC4 | PCR angiogenesis array, refers to: NOTCH4 | 5 x IC50, 6 h, normoxia | baseline: untreated | fold regulation | -1.5 |
| CC(=O)[O][Pd][c]1ccccc1-n1nc(C)cc1C.CC(=O)[O][Pd][c]1ccccc1-n1nc(C)cc1C | MDA-MB-231 | JC-1 flow cytometry | 25 µM, 24 h |  | cells with decreased ΔΨm | 19.4 ± 1.14% |
| Cc1cc(/C=C/c2ccc(O)c(O)c2)[nH]n1 | A549 | PI staining flow cytometry | 50 µM, 48 h |  | cells in G2/M phase | 40.8% |
| CCN(C(=O)c1cc(F)ccc1Oc1nncnc1N1CCC2(C1)CN([C@H](CCCN(C)CCOC)C(C)C)C2)C(C)C | JAR | cell growth or viability | 72 h |  | GI50 | > 10000 nM |
| Cn1ncc(-c2ccc3c(=O)[nH]nc(CN)c3c2)c1-c1c(F)c(Cl)cc(OC2CC2)c1C#N | OCI-Ly3 | cell viability, inhibitor, CellTiter-Glo | 120 h, baseline-subtracted |  | IC50 | 700 nM |
| Cn1ncc2cc(-c3cncc(Cl)c3N3CCC4(CCNC4=O)CC3)ccc21 | LS174T | gene expression, microarray, refers to: CA9 mRNA | concentration not given, 4 h | baseline: untreated cells | log2 fold change | 2.84 |
| CC(C)(C)c1cc(-c2ccc3cccnc3n2)nc(-c2ccc3cccnc3n2)c1.[Cl-].[Cl-].[Ru+2].c1ccc2cc3nc4c5cccnc5c5ncccc5c4nc3cc2c1 | A-375 | resazurin | with: light 523 nm, 20 mW, 100 J/cm2 |  | EC50 | 4870 nM |
| COC(=O)c1cc(NC2=NC(=O)C(=Cc3ccc(C)cc3)S2)ccc1OC(C)=O | MCF7 | GC-MS, refers to: Decanoic acid | 1 µM | baseline: DMSO | metabolite level | -0.61 fold change |
| Cc1ccncc1.[Cl-].[Cl-].[Ru+2].c1cc(-c2ccc3cccnc3n2)nc(-c2ccc3cccnc3n2)c1.c1ccc2cc3nc4c5cccnc5c5ncccc5c4nc3cc2c1 | SK-MEL-28 |  | visible light | baseline: dark EC50 over light EC50 | phototherapeutic index | 239 |
| Cc1ncsc1-c1ccc(C(C)NC(=O)C2CC(O)CN2C(=O)C(NC(=O)CCCCCCCCCCN2CCCC(Nc3ncc(Cl)c(Nc4ccccc4S(=O)(=O)C(C)C)n3)C2)C(C)(C)C)cc1 (stereo not shown) | 22Rv1 | RNA-seq, refers to: NUP37 mRNA | concentration not given | baseline: DMSO | log2 fold change | -1.26 |
| CN1CCCNC(=O)c2cccc(c2)C(=O)NCCCN(C)CCCNc2cccc3c2C(=O)c2cccc(c2C3=O)NCCC1 | SAS | RNA-Seq, refers to: TAPBP mRNA | 1 µM, 6 h | baseline: untreated cells | log2 fold change | -0.876 |
| CN(C)c1ccc(-n2cc(COC(=O)[C@@]3(C)C=C(C(=O)OC(C)(C)C)C(=O)CC3)nn2)cc1 | AP-1 reporter HEK293 | AP-1 reporter gene, luciferase reporter | 1 µM, 6 h, with: PMA 6 ng/mL | baseline: PMA alone | luminescence relative to PMA | 0.973 |
| CC(C)(C)c1cc(-c2ccc3cc4ccccc4nc3n2)nc(-c2ccc3cc4ccccc4nc3n2)c1.Cc1ccncc1.[Cl-].[Cl-].[Ru+2].c1ccc2cc3nc4c5cccnc5c5ncccc5c4nc3cc2c1 | A-375 | resazurin | with: light 633 nm, 100 J/cm2 | baseline: dark EC50 over light EC50 | phototoxicity index | 4 |
| CC1(C)C[C@@H](Nc2cccc(-c3sc(C(=O)O)c(OCC(=O)O)c3Cl)c2)CCN1S(=O)(=O)Cc1cccc(NC(=O)CN2CCC(c3ccc4c(c3)oc(=O)n4C3CCC(=O)NC3=O)CC2)c1 (stereo partly shown) | B16-F10 | HTRF, refers to: phospho-STAT1 Tyr701 | 10 µM, with: IFN-γ | baseline: DMSO | fold change | 5.46 and 5.64 and 5.63 and 5.55 and 5.27 and 5.11 |
| Cc1ncsc1-c1ccc([C@H](C)NC(=O)[C@@H]2C[C@@H](O)CN2C(=O)[C@@H](NC(=O)CN2CCN(CC3CCN(CC(=O)N4CCN(c5ncc(-c6cc(NC(=O)c7ccc(F)cc7C(F)(F)F)c(N7C[C@@H](C)N(C)[C@@H](C)C7)cc6F)cn5)CC4)CC3)CC2)C(C)(C)C)cc1 | Sf9 | global proteomics, refers to: XP_035429818.1 | 10 µM | baseline: DMSO | log2 fold change | -1.45 |
| CCOc1cncc(-c2ccc(NC(=O)C3(c4ccnc(NS(=O)(=O)C5CC5)n4)CCOCC3)nc2)n1 | NCI-H322M | cell growth or viability, ATP luminescence | 72 h |  | IC50 | 1380 nM |
| Cc1cc(Cl)cc(-c2ccnc3cc(CN4C(=O)C5C(C4=O)C5(C)C)sc23)c1C[C@@H]1CNCCO1 (stereo partly shown) | CHP-212 parental | PI flow cytometry | 0.1 µM, 24 h |  | S phase cells | 18.7% |
| Cc1ccc(-n2cc(CSc3nc4ccccc4n3Cc3cn(-c4ccc(C)cc4)nn3)nn2)cc1 | Caco-2 | MTT | 31.3 ppm |  | viability | 22.5% |
| C=CC(=O)N1C[C@H](C)N(c2nc(OC[C@@]34CCCN3C[C@H](F)C4)nc3c(F)c(-c4ccc(F)c5sc(N)c(C#N)c45)c(C(F)(F)F)cc23)C[C@H]1C | NCI-H358 (KRAS G12C heterozygous) | ERK phosphorylation, covalent inhibitor, HTRF, refers to: pERK |  |  | kinact | 0.00047 s⁻¹ |
| CC#CC#C/C=C1/O[C@@]2(CCCCO2)[C@@H](O)[C@@H]1OC(C)=O | RAW264.7 | Western blot | concentration not given, with: LPS |  | ERK phosphorylation | decreased |
| COc1ccc(NC(=O)c2ccc3[nH]c(-c4ccc(N(C)C)cc4)nc3c2)cn1 | HCT116 | IncuCyte | concentration not given, 16 h |  | dead cell to confluence ratio | 277 and 59.4 and 158 |
